Published values from different studies.
Every numbered part comes from another study and shows a few of its results, in no order. Changes are numbered by the printed parent chain.

Sample 1
Target: ABI1, truncated, D143A, DHFR fusion (Arabidopsis thaliana)
Method: DHFR PCA, deep sequencing
Sample: yeast
Notes: methotrexate growth selection, single substitutions
With: (+)-ABA 0.11 µM
Reference: wild-type fitted maximum
Reading: higher = stronger binding
Starting sequence: PYL1, truncated, DHFR fusion (Arabidopsis thaliana); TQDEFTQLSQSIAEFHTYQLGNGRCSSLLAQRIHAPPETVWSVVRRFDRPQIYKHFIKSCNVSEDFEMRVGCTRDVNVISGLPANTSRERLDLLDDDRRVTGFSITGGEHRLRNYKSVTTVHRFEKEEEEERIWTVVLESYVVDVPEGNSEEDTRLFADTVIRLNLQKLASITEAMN
Variant | relative binding score
E125V | 48.9%
R46G | -4.68%
D144F | -24.1%
M68R | 1.65%
R163C | -0.437%
T17V | -0.398%
A175M | 22.8%
F103K | -8.81%
Y115W | -7.09%
R32P | 0.451%
I79W | 21.9%
Y53F | 4.44%
T119A | -5.77%
R132T | 49.8%
L8G | -0.504%
F157Q | 6.38%
D65C | 7.6%
C25W | 1.81%
N177C | 62.9%
G23L | 0.251%
L93H | 5.94%
G71V | 0.95%
Q167S | 24.6%

Sample 2
Target: Prothrombin, mature alpha-thrombin (F2, Homo sapiens, UniProt P00734)
Method: aptamer microarray, sandwich
Molecule type: DNA with 2'F-ANA
Sample: in vitro
Concentration: 200 nM
Notes: whole 15-mer aptamer, many near background
With: Cy3 exosite-II aptamer, 400 nM
Reading: higher = stronger binding
Strand: GGTTGGTGTGGTTGG
Modification | mean fluorescence intensity [a.u.]
2'F-ANA at 2 4 6 10 11 13 | 65.3
2'F-ANA at 2 3 4 5 6 9 10 11 15 | 52.6
2'F-ANA at 1 4 8 11 12 13 | 219
2'F-ANA at 4 5 6 8 10 12 14 | 49.2
2'F-ANA at 2 4 5 7 8 10 14 | 44.4
2'F-ANA at 2 3 4 5 7 8 10 13 14 | 47.7
2'F-ANA at 4 7 13 14 15 | 120
2'F-ANA at 2 4 6 7 10 11 12 | 136
2'F-ANA at 6 7 8 13 | 454
2'F-ANA at 2 3 4 5 6 8 9 10 11 13 14 | 50.4
2'F-ANA at 9 10 11 14 15 | 95.6
2'F-ANA at 4 5 8 9 10 13 | 43.8
2'F-ANA at 3 5 7 9 10 11 12 13 15 | 116
2'F-ANA at 2 9 10 | 231
2'F-ANA at 1 4 5 6 10 11 12 15 | 51.5
2'F-ANA at 3 4 5 9 | 104
2'F-ANA at 1 4 5 7 9 15 | 96.6
2'F-ANA at 2 4 5 7 10 12 15 | 49.1
2'F-ANA at 2 4 6 8 13 | 203
2'F-ANA at 3 9 10 11 12 | 584
2'F-ANA at 1 2 4 7 8 12 15 | 313
2'F-ANA at 2 3 4 5 6 8 9 14 15 | 48
2'F-ANA at 1 4 7 11 14 15 | 53.2
2'F-ANA at 1 4 5 6 8 10 12 13 14 15 | 48.6
2'F-ANA at 2 3 4 6 7 11 13 15 | 326

Sample 3
Target: RNA binding protein fox-1 homolog 2, RRM domain, GST-SBP tag (RBFOX2, Homo sapiens, UniProt O43251-10, residues 100-194)
Method: RNA Bind-n-Seq
Molecule type: RNA
Sample: in vitro
Concentration: 365 nM
Notes: natural RNA segment, single round, ends assumed
Reference: no-protein control
Reading: higher = stronger binding
Residues (chain): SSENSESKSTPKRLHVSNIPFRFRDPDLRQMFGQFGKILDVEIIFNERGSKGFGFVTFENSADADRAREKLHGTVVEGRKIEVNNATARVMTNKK
Strand | RBNS enrichment (R)
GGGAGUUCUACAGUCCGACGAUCUUUUUUAAAUUAAUGAAAAUAUGUAAUAUUAAUAGUUAUUAUUUACUGGUGCAGAUGGUUGACAUUUUUCCCUAUUUUCCUCACUUUAUGAAAGAAUUUAAAUAAAAAAAUGGAAUUCUCGGGUGCCAA | 0.659
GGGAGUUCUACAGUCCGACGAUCUUCCCUCUCAGAGCCUGUGCCCGAAUCUUUAAUGUUCUCUGGGUGAAAGGUCCUGGGGAGAGCUUCGGGGCUCCCCCGAUGCCCAUCUCCAAUGCCAAUUCUUUGGUUUCUGGAAUUCUCGGGUGCCAA | 0.243
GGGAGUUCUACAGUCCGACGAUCGGUUACAGAGUUCAGCGCUUGGUUCCCAGGGUUUAUAUACGAAACAGCGGAUUGCUGUGGGCUGGUUCAUAAAGUGAAACUAAUGAAUCUAUCUCUUUGUCACUUGCUGGUGGAAUUCUCGGGUGCCAA | 0.325
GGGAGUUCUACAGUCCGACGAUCUCGACUUGAAUAUUAUCCCUAUGUAUUGCAUGAGAGGGGUCUCCCUCAUUCCAUCAGAGUAAUACACUUGCUUUAAUUCUUAAGCCUAAGUGAUACAAACAUGCCGAAUUUGGAAUUCUCGGGUGCCAA | 1.44
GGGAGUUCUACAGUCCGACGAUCGAAAGAAAAAUACCAUGUCUCUAAGCCAACUUUAAUUGCUUAAAAGACAUUUUUAUUUAGUUGAAAAAUCUAGUUUUUUUUGUAAACUGUAUCAAAUCUGUAUAUGUUGUUGGAAUUCUCGGGUGCCAA | 1.25
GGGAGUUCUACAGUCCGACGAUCCAGUCUCUUUAACGACAGCUAUAGAUGCUGGAUGUGUUCCGAUGACUUAGGUCAUGUCACAUUGUUGAAGCCAUUCAUUCUUGAGAUGAUUCUGUACAGGAGUGCUCCUAUGGAAUUCUCGGGUGCCAA | 0.204
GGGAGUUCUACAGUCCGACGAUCGCAUGCAAAGCAGACUGCAGCUAGUUAAGAGGAGGCUGCAGUAUCAUCCCUAGUAUCUGCUCUGCAAACCAUCUAGACAGAAGCAGUAGGCCUGGCUUUCUCAACUGCCUUGGAAUUCUCGGGUGCCAA | 3.27
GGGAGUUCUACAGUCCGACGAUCCACUUCAUUUUAAGAGCAAAAGACCCCAUGUUGAAAACUCCAUAACAGUUUUAUGCUGAUGAUAAUUUAUCUACAUGCAUUUCAAUAAACCUUUUGUUUCCUAAGACUAGUGGAAUUCUCGGGUGCCAA | 0.365

Sample 4
Target: CCNB3, cyclin fold, Cln2 fusion (human)
Method: yeast growth competition, sequencing
Sample: yeast
Notes: weak parent motif
Reference: not given
Reading: higher = stronger binding
Starting sequence: RB1 docking peptide (human); PKPLKKLRFDIEG
Variant | normalised enrichment score
L7D | -0.501
I11K | 0.392
K6M | 0.46
G13H | 0.14
F9W | 0.0756
K2F | 0.227
P1C | 1.11
G13W | 0.37
D10H | 0.171
L7W | 0.363
L7T | -0.189
G13A | 0.2
L4G | 0.225
K2H | -0.0473
E12S | 0.125
K5Y | 0.406
K2E | 0.651
D10Q | 0.153
F9S | -0.00763
P1W | 0.203
I11C | 0.118
P3Y | 0.197
L7A | -0.184
L4S | 0.0616
I11G | -0.0443

Single results of other studies
Substance | target | assay | test system | setting | scale | quantity | result
PhoQ, residues 284 288 289 292 302 303 SMYGEC | PhoP, residues 12 14 15 18 19 LYFRQ (Escherichia coli, UniProt P23836) | Sort-seq, refers to: YFP reporter | E. coli | PhoQ-PhoP variant library, with: 10 µM Mg2+ | reference: high Mg2+ state, higher = stronger signaling | fold induction | 8.84

Some of these lines once more (sample 1):
Variant | relative binding score
F157Q | 6.38%
T119A | -5.77%
Y53F | 4.44%
N177C | 62.9%
M68R | 1.65%
Y115W | -7.09%
D144F | -24.1%
T17V | -0.398%
R132T | 49.8%
Q167S | 24.6%
R163C | -0.437%
G71V | 0.95%
